Measured values collected from several papers.
A part holds a random share of what one study measured. Several values in a cell are separate wells, animals, samples, runs or records.
UniProt P42336, sequence (whole entry, unmodified, looked up): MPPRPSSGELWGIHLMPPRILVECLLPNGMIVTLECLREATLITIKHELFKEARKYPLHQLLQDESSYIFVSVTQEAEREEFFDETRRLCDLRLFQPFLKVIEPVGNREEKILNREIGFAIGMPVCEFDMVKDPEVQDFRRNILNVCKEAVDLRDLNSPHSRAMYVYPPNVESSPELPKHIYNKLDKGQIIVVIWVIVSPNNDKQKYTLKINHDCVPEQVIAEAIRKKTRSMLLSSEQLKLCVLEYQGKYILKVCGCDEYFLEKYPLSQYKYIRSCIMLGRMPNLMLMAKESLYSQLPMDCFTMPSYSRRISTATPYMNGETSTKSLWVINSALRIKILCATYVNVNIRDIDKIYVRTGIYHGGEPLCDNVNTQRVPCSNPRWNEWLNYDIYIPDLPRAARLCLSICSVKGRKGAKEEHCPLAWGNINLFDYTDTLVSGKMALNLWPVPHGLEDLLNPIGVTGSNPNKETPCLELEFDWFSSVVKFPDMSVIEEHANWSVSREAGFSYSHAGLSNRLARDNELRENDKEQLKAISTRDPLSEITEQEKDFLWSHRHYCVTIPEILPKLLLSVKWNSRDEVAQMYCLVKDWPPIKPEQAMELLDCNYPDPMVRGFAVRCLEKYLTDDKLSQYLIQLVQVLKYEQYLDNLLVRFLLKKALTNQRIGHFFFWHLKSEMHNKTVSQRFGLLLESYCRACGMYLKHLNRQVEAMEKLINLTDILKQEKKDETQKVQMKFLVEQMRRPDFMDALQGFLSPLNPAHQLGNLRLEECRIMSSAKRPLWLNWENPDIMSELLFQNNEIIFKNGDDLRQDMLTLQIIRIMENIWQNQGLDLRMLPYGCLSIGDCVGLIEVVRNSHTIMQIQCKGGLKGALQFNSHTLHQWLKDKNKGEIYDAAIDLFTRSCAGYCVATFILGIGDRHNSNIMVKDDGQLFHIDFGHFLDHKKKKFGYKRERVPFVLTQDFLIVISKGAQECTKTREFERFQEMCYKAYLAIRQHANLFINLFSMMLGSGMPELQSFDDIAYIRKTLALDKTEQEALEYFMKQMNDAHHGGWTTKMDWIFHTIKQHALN
UniProt O43353, sequence (whole entry, looked up): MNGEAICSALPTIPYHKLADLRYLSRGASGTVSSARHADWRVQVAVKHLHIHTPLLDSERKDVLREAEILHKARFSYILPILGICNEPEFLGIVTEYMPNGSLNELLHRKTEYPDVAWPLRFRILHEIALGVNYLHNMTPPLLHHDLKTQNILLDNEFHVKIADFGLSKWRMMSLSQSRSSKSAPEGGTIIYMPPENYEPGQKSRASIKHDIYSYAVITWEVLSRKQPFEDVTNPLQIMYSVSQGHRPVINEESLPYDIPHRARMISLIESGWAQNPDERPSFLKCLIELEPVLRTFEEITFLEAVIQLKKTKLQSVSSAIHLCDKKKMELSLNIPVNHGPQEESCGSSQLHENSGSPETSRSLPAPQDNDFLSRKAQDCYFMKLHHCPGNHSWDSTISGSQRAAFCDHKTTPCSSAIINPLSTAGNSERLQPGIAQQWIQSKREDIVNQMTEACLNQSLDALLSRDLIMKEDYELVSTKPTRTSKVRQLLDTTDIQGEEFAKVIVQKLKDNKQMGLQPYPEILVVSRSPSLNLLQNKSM
UniProt Q9P286, sequence (whole entry, looked up): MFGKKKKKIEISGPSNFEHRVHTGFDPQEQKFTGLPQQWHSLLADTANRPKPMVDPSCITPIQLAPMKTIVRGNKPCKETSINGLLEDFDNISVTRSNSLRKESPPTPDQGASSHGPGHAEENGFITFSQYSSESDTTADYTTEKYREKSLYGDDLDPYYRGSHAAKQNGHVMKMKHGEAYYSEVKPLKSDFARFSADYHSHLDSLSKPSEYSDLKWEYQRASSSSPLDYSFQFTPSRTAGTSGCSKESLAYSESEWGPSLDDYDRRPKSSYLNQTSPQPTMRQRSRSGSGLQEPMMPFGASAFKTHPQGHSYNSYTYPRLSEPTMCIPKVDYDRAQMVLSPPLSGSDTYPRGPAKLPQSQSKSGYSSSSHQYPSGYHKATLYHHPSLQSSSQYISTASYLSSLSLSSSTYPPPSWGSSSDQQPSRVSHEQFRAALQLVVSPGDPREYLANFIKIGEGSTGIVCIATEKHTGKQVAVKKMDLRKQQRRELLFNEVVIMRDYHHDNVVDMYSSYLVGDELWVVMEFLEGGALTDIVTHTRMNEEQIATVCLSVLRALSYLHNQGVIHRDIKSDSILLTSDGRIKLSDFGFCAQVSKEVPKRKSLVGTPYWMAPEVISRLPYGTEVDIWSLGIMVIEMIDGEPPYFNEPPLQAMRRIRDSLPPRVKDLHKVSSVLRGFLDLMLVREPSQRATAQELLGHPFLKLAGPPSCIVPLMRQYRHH
UniProt Q13153, sequence (whole entry, looked up): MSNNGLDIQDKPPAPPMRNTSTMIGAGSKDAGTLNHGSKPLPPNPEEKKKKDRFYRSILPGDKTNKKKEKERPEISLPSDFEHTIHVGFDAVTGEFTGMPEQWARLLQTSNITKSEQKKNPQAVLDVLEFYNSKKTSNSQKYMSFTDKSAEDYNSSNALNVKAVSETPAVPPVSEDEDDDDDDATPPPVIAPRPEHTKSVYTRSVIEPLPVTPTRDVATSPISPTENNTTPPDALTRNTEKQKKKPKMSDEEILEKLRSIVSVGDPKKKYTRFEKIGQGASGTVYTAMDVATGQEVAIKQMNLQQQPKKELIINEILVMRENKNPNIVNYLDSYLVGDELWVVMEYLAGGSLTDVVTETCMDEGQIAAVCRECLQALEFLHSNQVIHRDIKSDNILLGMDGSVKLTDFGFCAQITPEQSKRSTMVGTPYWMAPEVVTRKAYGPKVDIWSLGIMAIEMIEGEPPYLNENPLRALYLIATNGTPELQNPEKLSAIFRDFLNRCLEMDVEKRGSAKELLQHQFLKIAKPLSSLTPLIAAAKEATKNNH
UniProt P23458, sequence (whole entry, looked up): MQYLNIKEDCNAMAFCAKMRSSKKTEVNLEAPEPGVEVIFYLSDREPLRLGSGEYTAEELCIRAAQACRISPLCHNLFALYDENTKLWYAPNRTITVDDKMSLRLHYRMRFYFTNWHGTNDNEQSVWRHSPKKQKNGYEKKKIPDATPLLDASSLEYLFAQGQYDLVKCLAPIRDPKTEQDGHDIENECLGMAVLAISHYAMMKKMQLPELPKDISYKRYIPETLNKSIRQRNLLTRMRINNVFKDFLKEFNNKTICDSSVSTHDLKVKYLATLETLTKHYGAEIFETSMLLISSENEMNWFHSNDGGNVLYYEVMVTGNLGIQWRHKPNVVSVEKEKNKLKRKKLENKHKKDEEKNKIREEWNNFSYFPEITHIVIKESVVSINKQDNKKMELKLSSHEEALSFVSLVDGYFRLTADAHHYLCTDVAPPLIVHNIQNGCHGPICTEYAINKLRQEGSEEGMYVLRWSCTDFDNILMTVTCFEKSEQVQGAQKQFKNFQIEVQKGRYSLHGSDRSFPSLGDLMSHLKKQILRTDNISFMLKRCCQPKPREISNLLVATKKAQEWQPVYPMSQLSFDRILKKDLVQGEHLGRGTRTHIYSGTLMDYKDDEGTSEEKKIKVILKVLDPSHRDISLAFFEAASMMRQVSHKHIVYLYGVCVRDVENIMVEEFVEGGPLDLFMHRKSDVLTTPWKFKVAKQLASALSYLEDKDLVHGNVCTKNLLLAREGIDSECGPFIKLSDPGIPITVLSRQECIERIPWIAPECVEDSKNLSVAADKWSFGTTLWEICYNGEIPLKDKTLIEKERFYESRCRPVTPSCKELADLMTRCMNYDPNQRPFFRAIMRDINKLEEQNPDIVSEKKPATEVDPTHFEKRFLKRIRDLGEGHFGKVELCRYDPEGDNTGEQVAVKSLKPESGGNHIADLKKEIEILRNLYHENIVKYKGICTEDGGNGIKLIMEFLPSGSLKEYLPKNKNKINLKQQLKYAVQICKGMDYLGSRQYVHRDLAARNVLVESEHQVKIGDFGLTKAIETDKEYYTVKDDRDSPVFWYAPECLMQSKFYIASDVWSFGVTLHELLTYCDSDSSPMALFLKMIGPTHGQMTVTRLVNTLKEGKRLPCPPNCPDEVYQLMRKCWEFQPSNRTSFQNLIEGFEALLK
UniProt Q05513, sequence (whole entry, looked up): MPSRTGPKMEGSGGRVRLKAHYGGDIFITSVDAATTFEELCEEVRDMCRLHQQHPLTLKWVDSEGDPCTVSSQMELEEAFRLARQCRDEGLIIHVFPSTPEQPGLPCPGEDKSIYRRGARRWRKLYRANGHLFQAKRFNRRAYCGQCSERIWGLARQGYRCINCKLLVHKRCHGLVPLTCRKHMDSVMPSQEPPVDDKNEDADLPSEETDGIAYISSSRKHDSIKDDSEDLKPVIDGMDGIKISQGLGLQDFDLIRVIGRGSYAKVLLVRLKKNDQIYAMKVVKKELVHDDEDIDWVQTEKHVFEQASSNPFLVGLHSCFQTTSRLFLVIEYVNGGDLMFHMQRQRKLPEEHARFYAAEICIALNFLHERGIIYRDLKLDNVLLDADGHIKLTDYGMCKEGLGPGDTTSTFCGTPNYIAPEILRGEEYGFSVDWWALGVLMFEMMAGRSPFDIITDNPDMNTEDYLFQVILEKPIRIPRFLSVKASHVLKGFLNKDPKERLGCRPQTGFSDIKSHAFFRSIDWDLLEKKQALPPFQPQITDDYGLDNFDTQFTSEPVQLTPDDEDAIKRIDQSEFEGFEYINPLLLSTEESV
UniProt P49674, sequence (whole entry, looked up): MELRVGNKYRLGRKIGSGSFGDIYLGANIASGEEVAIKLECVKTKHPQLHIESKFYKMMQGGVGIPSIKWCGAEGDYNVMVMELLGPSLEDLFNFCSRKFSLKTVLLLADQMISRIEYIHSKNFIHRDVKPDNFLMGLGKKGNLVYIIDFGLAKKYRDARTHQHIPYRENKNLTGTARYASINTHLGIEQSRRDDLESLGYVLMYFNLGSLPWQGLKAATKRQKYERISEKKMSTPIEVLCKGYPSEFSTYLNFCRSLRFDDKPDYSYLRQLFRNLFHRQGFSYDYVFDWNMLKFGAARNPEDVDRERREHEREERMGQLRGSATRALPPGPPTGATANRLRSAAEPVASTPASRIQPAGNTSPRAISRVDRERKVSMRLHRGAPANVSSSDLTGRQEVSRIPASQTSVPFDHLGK

Block 1
Cell line: HaCaT
Concentration: 100 µM
Time: 18 h
With `CNC[C@H](O)c1cccc(O)c1` the viability was 107%.
`Cc1c(O)cccc1C(=O)N[C@@H](CSc1ccccc1)[C@H](O)CN1C[C@H]2CCCC[C@H]2C[C@H]1C(=O)NC(C)(C)C` gave a viability of 49.4%.
For `COc1cc(NC(C)CCCN)c2ncccc2c1` (stereo not shown), the viability was 15%.
For `OC[C@@H](O)[C@@H](O)[C@H](O)[C@@H](O)CO`, the viability was 111%.
For `O=C(CCCN1CC=C(n2c(=O)[nH]c3ccccc32)CC1)c1ccc(F)cc1`, the viability was 54.1%.
The viability of `N[C@@H](CCC(=O)N[C@@H](CS)C(=O)NCC(=O)O)C(=O)O` is reported as 98.6%.
For `COc1cnc(NS(=O)(=O)c2ccc(N)cc2)nc1`, the viability was 110%.
`C[C@]12CCC(=O)C=C1[C@@H]1C[C@@H]1[C@H]1[C@@H]3[C@@H]4C[C@@H]4[C@@]4(CCC(=O)O4)[C@@]3(C)CC[C@@H]12` has a viability of 82.7%.
`CN(C)CCOC(C)(c1ccccc1)c1ccccn1` (stereo not shown) has a viability of 59%.
The viability of `C#C[C@]1(O)CC[C@H]2[C@@H]3CCC4=CC(=O)CC[C@@H]4[C@H]3CC[C@@]21C` is reported as 84%.
`CC(C(=O)O)c1cccc(Oc2ccccc2)c1` (stereo not shown) has a viability of 90.3%.
The viability of `NC(CO)C(=O)NNCc1ccc(O)c(O)c1O` (stereo not shown) is reported as 92.7%.
`Cc1oncc1C(=O)Nc1ccc(C(F)(F)F)cc1` gave a viability of 68.9%.

Block 2
Compound: COc1cc(Nc2c(C#N)cnc3cc(OCCCN4CCN(C)CC4)c(OC)cc23)c(Cl)cc1Cl
Read-out: enzyme activity
Action: inhibitor
Concentration: 0.5 µM
Baseline: control
It gave 98.3% for remaining activity (Cyclin-dependent kinase 2, with cyclin E (CDK2, Homo sapiens, UniProt P24941)).
It gave 81% for remaining activity (CLK1 (Homo sapiens, UniProt P49759)).
For CLK2 (Homo sapiens, UniProt P49760): remaining activity read 69.3%.
It gave 81.7% for remaining activity (MUSK (Homo sapiens, UniProt O15146)).
For TEC (Homo sapiens, UniProt P42680): remaining activity read 96.1%.
It gave 103% for remaining activity (SGK2 (Homo sapiens, UniProt Q9HBY8)).
The remaining activity was 10.9% (CSNK1D (Homo sapiens, UniProt P48730)).
JAK1 (Homo sapiens, UniProt P23458) — remaining activity: 99%.
It gave 4.38% for remaining activity (EPHA6 (Homo sapiens, UniProt Q9UF33)).
It gave 11.7% for remaining activity (PAK1 (Homo sapiens, UniProt Q13153)).
PRKCQ (Homo sapiens, UniProt Q04759) — remaining activity: 71.5%.
The remaining activity was 89.7% (PRKCZ (Homo sapiens, UniProt Q05513)).
It gave 98.5% for remaining activity (SRPK1 (Homo sapiens, UniProt Q96SB4)).
For PAK6 (Homo sapiens, UniProt Q9NQU5): remaining activity read 105%.
CAMK1 (Homo sapiens, UniProt Q14012) — remaining activity: 68.9%.
FLT1 (Homo sapiens, UniProt P17948) — remaining activity: 44.5%.
For CSNK1E (Homo sapiens, UniProt P49674): remaining activity read 11.4%.

Block 3
Compound: O=C(O)c1cc(-c2ccc(C3CCNCC3)cc2)c2ccc(-c3ccc(C(F)(F)F)cc3)cc2c1
Read-out: cell-free assay
Method: competition with immobilised ligand
Concentration: 1 µM
For CDK9 (Homo sapiens, UniProt P50750): remaining binding read 100%.
For MAP3K7 (Homo sapiens, UniProt O43318): remaining binding read 100%.
The remaining binding was 100% (FLT3 (Homo sapiens, UniProt P36888, N841I)).
It gave 100% for remaining binding (PI4KB (Homo sapiens, UniProt Q9UBF8)).
It gave 100% for remaining binding (CSF1R (Homo sapiens, UniProt P07333)).
The remaining binding was 100% (PTK2B (Homo sapiens, UniProt Q14289)).
The remaining binding was 100% (LRRK2 (Homo sapiens, UniProt Q5S007, G2019S)).
It gave 100% for remaining binding (CSNK1G2 (Homo sapiens, UniProt P78368)).
The remaining binding was 96% (MAP4K1 (Homo sapiens, UniProt Q92918)).
MAP3K5 (Homo sapiens, UniProt Q99683) — remaining binding: 100%.
PIK3CB (Homo sapiens, UniProt P42338) — remaining binding: 100%.
PTK6 (Homo sapiens, UniProt Q13882) — remaining binding: 100%.
It gave 100% for remaining binding (TEK (Homo sapiens, UniProt Q02763)).
PAK5 (Homo sapiens, UniProt Q9P286) — remaining binding: 100%.
For PIK3CA (Homo sapiens, UniProt P42336, H1047L): remaining binding read 100%.
The remaining binding was 100% (RIPK2 (Homo sapiens, UniProt O43353)).
For CSNK1G1 (Homo sapiens, UniProt Q9HCP0): remaining binding read 100%.
The remaining binding was 100% (FES (Homo sapiens, UniProt P07332)).
For EGFR (Homo sapiens, UniProt P00533, G719C): remaining binding read 100%.
For CDK5 (Homo sapiens, UniProt Q00535): remaining binding read 100%.
The remaining binding was 100% (MAPK4 (Homo sapiens, UniProt P31152)).
PRPF4B (Homo sapiens, UniProt Q13523) — remaining binding: 100%.
For EPHB6 (Homo sapiens, UniProt O15197): remaining binding read 96%.
The remaining binding was 100% (PIK3CA (Homo sapiens, UniProt P42336, E545K)).
GSK3A (Homo sapiens, UniProt P49840) — remaining binding: 99%.

Block 4
Cell line: mouse MPNST tumor cells
Method: high-content nuclear imaging
Item: cell number
Concentration: 10 µM
Time: 12 h
Notes: mean of 2 replicates
Baseline: plate mean
Reading: higher = more cells
The nuclei count of `CC1(c2ccccc2)OC(C(=O)O)=CC1=O` (stereo not shown) is reported as 0.729 z-score.
The nuclei count of `CC1(C)CN2C(CSC(=NC3CCCCC3)NC3CCCCC3)=CSC2=N1` is reported as -1.28 z-score.
`CC1=Nc2ccc(Cl)cc2S(=O)(=O)N1` gave a nuclei count of 1.4 z-score and 0.634 z-score and 1.27 z-score.
With `CN1CCN(c2c(F)cc3c(=O)c(C(=O)O)cn4c3c2SCC4)CC1` the nuclei count was 0.637 z-score.
`COc1ccc(C[C@H](N)C(=O)N[C@H]2[C@@H](O)[C@H](n3cnc4c(N(C)C)ncnc43)O[C@@H]2CO)cc1` has a nuclei count of -6.34 z-score.
The nuclei count of `O=C(O)c1ccccc1OP(=O)(O)O` is reported as 0.636 z-score.
`CC(C(=O)O)c1ccc2c(c1)Cc1cccnc1O2` (stereo not shown) has a nuclei count of 0.273 z-score.
`COc1cc(OC)cc(C(=O)NNC(=O)Nc2cccc3ccccc23)c1` has a nuclei count of 0.854 z-score.
With `COC(=O)c1ccc(N2CCN(C)CC2)c(NC(=O)c2cccc(OC)c2)c1` the nuclei count was 0.267 z-score.

Repeated from above (block 3):
For MAP3K7 (Homo sapiens, UniProt O43318): remaining binding read 100%.
The remaining binding was 100% (FLT3 (Homo sapiens, UniProt P36888, N841I)).
It gave 100% for remaining binding (PI4KB (Homo sapiens, UniProt Q9UBF8)).
It gave 100% for remaining binding (CSF1R (Homo sapiens, UniProt P07333)).
The remaining binding was 100% (PTK2B (Homo sapiens, UniProt Q14289)).
The remaining binding was 100% (LRRK2 (Homo sapiens, UniProt Q5S007, G2019S)).
It gave 100% for remaining binding (CSNK1G2 (Homo sapiens, UniProt P78368)).
The remaining binding was 96% (MAP4K1 (Homo sapiens, UniProt Q92918)).
MAP3K5 (Homo sapiens, UniProt Q99683) — remaining binding: 100%.
PIK3CB (Homo sapiens, UniProt P42338) — remaining binding: 100%.
